# Measurements from different studies.
# Every numbered part comes from another study and shows a few of its results, in no order.

# Sample 1
# Target: Histone acetyltransferase KAT6A, winged helix 2, GST fusion (KAT6A, Homo sapiens, UniProt Q92794, residues 85-181)
# Technique: protein binding microarray
# Form: double-stranded DNA, one strand shown
# Matrix: in vitro
# Tested at: not given
# Setting: 8-mer, flanks averaged, mean of 2 arrays, mostly near background
# Baseline: not given
# Reading: higher = stronger binding
# Construct (chain): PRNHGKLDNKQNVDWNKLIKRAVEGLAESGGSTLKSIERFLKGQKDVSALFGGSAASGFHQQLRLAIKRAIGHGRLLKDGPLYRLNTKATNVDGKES
Strand,E-score
GTGGGCTA,-0.0218
CTTCATGC,-0.0893
AACGTATC,-0.198
TTATGGAA,-0.188
CGAAACCC,0.0938
CAACGCAG,0.117
AGTATATG,-0.0789
CCCTCAAG,-0.0309
AGCGCTCC,0.0588
AGAGAAAT,0.0147
AACTTCCT,0.0146
CACCTCTC,-0.168
CGATCCAG,0.0195
GAAACGCC,0.0573
GTTAGTCA,-0.0914
CTCAGGGC,0.128
CTAGCTTC,0.113
AAGCTGTA,0.0111
ACAGGCGC,0.0612
ACGTGGTC,-0.252
CACCACGC,0.0274
CCTGCTCC,0.109

# Sample 2
# Target: Interferon regulatory factor 7, full length, phosphomimetic (IRF7, Homo sapiens, UniProt Q92985, residues 1-503, S101K/S471D/S472D/S475D/S476D/S477D/S483D/S484D/S487D)
# Technique: protein-binding microarray
# Form: double-stranded DNA, one strand shown
# Matrix: in vitro
# Tested at: 250 nM
# Setting: 60-bp whole probe
# With: salmon DNA 0.4 mg/ml
# Baseline: random background probes
# Reading: higher = stronger binding
# Shared flanks, not repeated: GCCTAGCAC … GTCTTGATTCGCTTGACGCTGCTG
# Target sequence (chain): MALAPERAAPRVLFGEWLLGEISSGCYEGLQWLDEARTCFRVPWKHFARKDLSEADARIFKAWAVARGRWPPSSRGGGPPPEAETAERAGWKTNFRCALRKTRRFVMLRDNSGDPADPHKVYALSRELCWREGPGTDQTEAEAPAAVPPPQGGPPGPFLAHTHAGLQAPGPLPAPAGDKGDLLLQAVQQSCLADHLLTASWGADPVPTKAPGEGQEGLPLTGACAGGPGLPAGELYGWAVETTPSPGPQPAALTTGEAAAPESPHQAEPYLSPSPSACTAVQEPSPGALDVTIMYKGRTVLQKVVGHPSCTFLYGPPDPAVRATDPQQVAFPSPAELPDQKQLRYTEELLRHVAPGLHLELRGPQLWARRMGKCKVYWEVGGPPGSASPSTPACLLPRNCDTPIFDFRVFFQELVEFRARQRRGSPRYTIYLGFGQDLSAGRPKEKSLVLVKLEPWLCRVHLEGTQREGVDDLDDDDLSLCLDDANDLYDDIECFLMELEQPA
Strand,log fluorescence
TCAGTTCTTTTTTTCAAACTGTGCTAG,1.6 z-score
TAGTCTCTTCTGCAGCCTTTGTGCTAG,0.463 z-score
GTGTTTGTCCCTATTTAAGAGTGCTAG,3.51 z-score
TTAGAACGGGGGTTTCGATTAGTGCTA,7.78 z-score
GACGGACTACTTATCCTGACGTGCTAG,-0.248 z-score
GACGATCTCTGTATCGAGACGTGCTAG,0.18 z-score
TTACATTTTAATTTTATTTGGTGCTAG,0.543 z-score
TTAAGTATCGGACTGGGTTAGTGCTAG,0.317 z-score
GAAGATATCAGTCTCGAGACGTGCTAG,0.266 z-score
TAAGGTTTCCTTCTCCTTTAGTGCTAG,2.71 z-score
GGTCCTCTAGGAATGTAACTGTGCTAG,0.033 z-score
TTCAGTTTCACTGCTGCCCTGTGCTAG,0.525 z-score
ATGTGTTTACATATGTTTTTGTGCTAG,0.431 z-score
GACGGTTCCGGTATCGGGACGTGCTAG,1.9 z-score
GTCGATATCGGGTATCGAGACGTGCTA,0.626 z-score
TGTTCTTTTCTGTTGTCTGTGTGCTAG,2.17 z-score
TGAGGTTTCCTTCTCCTTTAGTGCTAG,1.99 z-score
TTAGATATCGGTACTGGATTAGTGCTA,0.321 z-score
TTAGATTTCGGGTTTAGATTAGTGCTA,1.74 z-score
AATAGCTTTTCATTTTTTAACGTGCTA,0.756 z-score
GTGTGTTTGAGTCTTCTCCTGTGCTAG,-0.38 z-score

# Sample 3
# Target: Prothrombin, mature alpha-thrombin (F2, Homo sapiens, UniProt P00734)
# Technique: aptamer microarray, sandwich
# Form: DNA with 2'F-ANA
# Matrix: in vitro
# Tested at: 200 nM
# Setting: whole 15-mer aptamer, many near background
# With: Cy3 exosite-II aptamer, 400 nM
# Reading: higher = stronger binding
# Strand: GGTTGGTGTGGTTGG
Modification,mean fluorescence intensity [a.u.]
2'F-ANA at 3 5 8 11 15,117
2'F-ANA at 1 4 7 8 11 14 15,55.8
2'F-ANA at 2 4 7 8 10 12,150
2'F-ANA at 2 3 5 6 7 8 9 10 11 12,62
2'F-ANA at 2 3 5 6 7 8 9 10 11 13 14,198
2'F-ANA at 3 4 7 10 11 12 13 15,252
2'F-ANA at 3 4 7 9 10 11 12 13 14 15,169
2'F-ANA at 1 2 6 7 9 10 11 14,45.2
2'F-ANA at 1 2 5 6 7 8 13,55.1
2'F-ANA at 3 5 6 8 12 13 15,178
2'F-ANA at 2 5 6 7 8 11 14 15,47.8
2'F-ANA at 1 5 6 7 8 9 11 13 14,45.9
2'F-ANA at 1 2 3 5 7 8 10 12 13 15,53.8
2'F-ANA at 1 3 5 7 8 9 11 12 13 15,85.3
2'F-ANA at 1 2 3 5 10 11 13,46
2'F-ANA at 3 4 6 7 8 10 12 15,303
2'F-ANA at 1 2 3 5 8 9 10 11 12 14,50.2
2'F-ANA at 1 2 3 4 6 9 10 11 12 13 14,53.2
2'F-ANA at 6 7 8 9 10 11 15,134
2'F-ANA at 1 2 3 4 6 10 12 13 14 15,53.5
2'F-ANA at 2 4 12 15,590
2'F-ANA at 1 2 5 9 10 13,202
2'F-ANA at 2 6 9 11 12 14 15,131

# Sample 4
# Target: RNA binding protein fox-1 homolog 2, RRM domain, GST-SBP tag (RBFOX2, Homo sapiens, UniProt O43251-10, residues 100-194)
# Technique: RNA Bind-n-Seq
# Form: RNA
# Matrix: in vitro
# Tested at: 365 nM
# Setting: natural RNA segment, single round, ends assumed
# Baseline: no-protein control
# Reading: higher = stronger binding
# Shared flanks, not repeated: GGGAGUUCUACAGUCCGACGAUC … UGGAAUUCUCGGGUGCCAA
# Residues (chain): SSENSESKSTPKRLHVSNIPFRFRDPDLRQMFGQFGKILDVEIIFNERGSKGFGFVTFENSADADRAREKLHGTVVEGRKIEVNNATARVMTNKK
Strand,RBNS enrichment (R)
GCCUCUCCCUAAAGAGCUGCCUCCCUGCUGCCGAGCCCUGGUCUGGCCACGAGCCACCACUGCCUCCCGCUGCUGCCCACAGGUGGUGCCGCCAAUGGGCAGUGCCCUCA,0.333
UCCCCCAAGUUAAUCUUCCAUCUUUGUUUUUGGGUUUCAAUGAAGGCUUUACAUAAGAAAUUAUUAAACAAAACAAGGGGGGCAAUAAAUGUAUAUAACAUUAAUAAUGU,0.466
CGGGGAUGAAGCAGUAGCUAGGUUGCUUAACCUCCCCUCUCCAGCAGAGGCAUAAUCCAGAUAAGUAGCAGAUGUCAUAUUUCAUAAGCUCUUUUGGCCUGGGUACAGCA,13
GAAGAUUAACAACAGUCUCUCCCCCAGAACCUCAUUAUUUAUUUAUUUGGCAUUCCAGAAAGGAUUGCUGAUAAUUUAGAUGAUGCAGGGAAGGCCACUGUUAGUAAGGU,0.335
UCUGUUAAAAAGAGAAAUACACUCAGAAGACAUGGACUUGAGAAUCAGAAAGAAACUAAGAAAAAGGAUAAAAAUAUCCAAAGGAGUUACAUUUUGAGGAAAAAGAACAA,0.261
AUCUAAGUUGUGGUUCUUAGCCUGUCCCAGGAACAGCAGCAUGGGAGGCUAGGAACUUAACAGAAAUGAGGAUUCUUGGUUCUCACCCCAAACCUACUUAAUCAGAAACC,0.507
AUACUGUAGGCACACUUUGCACUGAUAUAUCAUGAGUGAAUAAAUGUCUUGCCUACUCACGUCUCAUCCAGGAGUGUGUCUCAUAGCUAUUGCCACAUGUCCUUAUUAUA,0.948
AGGAGGAAGGGACACUCACUCUGGAAGCUCUGCAGCCACUCCGUGCCAGGUGCCUUAACUCUGGGACGUGUACAGACGUCCUCCCUCCUCUUUGGGAACUGUCCUCUUGG,0.599
UGUGCCAUUCUGCUCAAAACUAAAUGGUGGUCAGGUUCAAGUAAAGAAAAAUAAAACAAGCUGCAUUUAUAGACUUGCUUGGAAUUGAAAUGAACAUAGCCAGUUCCUAC,0.764
UAUACCCCCAAAAUACCGUCUUCAGUAGCGACUGAAUCUGCCACUGUCAAAAUACGUUACUUGCAUUUAUUCCAAAUAAUCUCGUUUACUCUUAACUGUUUAUGCAAAUU,0.783
CCCUUUGAGCCCCCAGAUGGUAUUGCAGCUUCACUGCCUGCGUUCCUGGGAGCGUCUGGAGCUCACAGUGAUCAGUGACCACAUCAUUCUCUCUGAGCAGAGGAGCAGGA,0.587
UGUGGCUGAGGCUGUCCCCAGAGAGGAUGGCAGCAGGUAUUGGGUCCUCAGCCUUCUGGCGGGAGCCCUGAGGCUGCGGACAAAGCCCUUUCAUCUGAGGACUUUCAUCU,0.135

# Sample 5
# Target: RING finger protein unkempt homolog, zinc fingers 1-6, SBP tag (UNK, Homo sapiens, UniProt Q9C0B0, residues 30-357)
# Sequence of UniProt Q9C0B0 (30-357, looked up): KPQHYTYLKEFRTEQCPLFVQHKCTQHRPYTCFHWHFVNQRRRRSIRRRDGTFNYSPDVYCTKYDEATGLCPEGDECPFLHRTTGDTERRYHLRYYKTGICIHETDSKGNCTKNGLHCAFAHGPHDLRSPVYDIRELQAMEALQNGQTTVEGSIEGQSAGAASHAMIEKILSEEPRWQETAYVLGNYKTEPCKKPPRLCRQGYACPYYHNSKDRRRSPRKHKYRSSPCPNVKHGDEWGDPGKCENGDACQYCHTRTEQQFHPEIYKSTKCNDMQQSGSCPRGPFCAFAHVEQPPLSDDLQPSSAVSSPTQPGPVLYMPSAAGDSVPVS
# Technique: RNA Bind-n-Seq
# Form: RNA
# Matrix: in vitro
# Tested at: 100 nM
# Setting: RNA with constant flanks, vertebrate orthologous sites, ends assumed
# Baseline: input RNA pool
# Reading: higher = stronger binding
# Shared flanks, not repeated: GGGAGUUCUACAGUCCGACGAUC … CAACAGAGGAUUGAGCAUCA
Strand,bound/input enrichment
GACGCUUUGAUGUAAAAUUUGAAAUAAAGAGCAGCUGAUCACAAGCACAAUCUUCCCCCUUAGCCAUUUAAAAAAGUUAAAAAAUUAUAAAAAACAAAAACCUACUAGUCUUGAACAAAC,2.99 ratio
UGGAUGCAGUGUAUAAAUUAUACAAGGCAGUGUCUUCAGCUUUAUAUAUAGAGAGAGAGAUUGUUAGUUUUAAAGUCAUCUACUUUUAUUUAAACUUCUAGAUUGGAUUGUUUGCUAUUG,0.742 ratio
CCUAUAUGUAGAAAACAAUUUUCACUGAAGCCAUUGUCAGGUUUUCCCCCUAGAGUUUUGUUUGGAGCUCUUUAAUUUUAUACAAGCUUGCUGUGUUGGUUAUCAUUUCCCCAGAGUUAA,0.767 ratio
GUGCAAGGAGAUUAUUCCAACUAGUGAAUUUAUUAACAGUAAAUUGACAGCAAAGGCAAACAGGCAGCUUCAAGAUCCUUUAGUAAUCAUGACAGGAAACAUCCCAACGUGGCUUACUGA,0.737 ratio
GGCAUCUGGUGACAUUUGGCCUGGUCUUUCAGCAUAUGAUAAUAGUCCAAGAUCACCUCACAGCCCUUCUCCUGUUGCUACACCACCUAGUCAGAGUUCAUCUUGUUCUGAUGCUCCCAU,0.461 ratio
ACAGAAGAAGAGCUCACAACUCAGAAGGAACUAUUAGAAGAGUUUCUAAUGGCUGAAAGCUAGGAAAAAUUAGGACAAUUUUACAAAUGAGCCAUCAAAACAAAACAAAAAAGAUAUGGA,0.995 ratio
CUCCCUGUUAUCUCUAAAAUACAACUUUUUAAAAUCGUGUUGCUACCACUUCUAAAAAUGCAGCAAUAUUCAAAUAAAACACUAAUGAUAUGAGAAAUGUUGCAUAUUGUUUCGCAAGCC,0.348 ratio
UACAAUCUUACACUUAAACUGGUAUUUUCCAACAAUAGGAGAUUUUCUUUUUUUACAGUUUAGUGUAUCUGGUUUCUACAUGGAAGACUAAACUCGUGCUUAUUGCUAAAUGUGGUCUUU,0.314 ratio
CAUUGUACCCUGCUGUAUAAUAAACAAUCUUAGACAUUUAUCAACUGUUGAUACAAAUGUUAGUCCCUAACCACUUUUUAUAUGUUUUAAAUUUUUGAAAUUCAAGUGUGCCUGCCGUAA,1.57 ratio
CCCUCUGAACCCCAUAUCUUCUGUUUCAUAGUGCAGAAGUAUUCUUUUCAAUUGCAUUAUUGGUGGACUUGUUUUAAUUUUGGAGAAACUUUCAGUACAGAUACUGUGAGCUUACAUGGA,0.912 ratio
UGGGUUACUCCUAUUAUUAUCAAGUAGCUGGAAUUGUGAAGGUUGGAGUAGUUAGAUCUUUAGCUUUUAUUCCUUAUUUUUUGUAUUACUCUCCAUGUGUAUAAAUUAUUGAUCAUGUUG,4.41 ratio
